Assay results collected from several papers.
Every numbered part comes from another study and shows a few of its results, in no order. Changes are numbered by the printed parent chain.

Series 1
Target: Interferon regulatory factor 3, full length, phosphomimetic (IRF3, Homo sapiens, UniProt Q14653, residues 1-427, S386D/S396D/S398D/S402D/T404D/S405D)
Method: protein-binding microarray
Molecule type: double-stranded DNA, one strand shown
Matrix: in vitro
Concentration: 2540 nM top
Notes: 60-bp whole probe
With: salmon DNA 0.4 mg/ml
Relative to: random background probes
Direction: higher = stronger binding
All sequences stand within: GCCTAGCAC … GTCTTGATTCGCTTGACGCTGCTG
Residues (chain): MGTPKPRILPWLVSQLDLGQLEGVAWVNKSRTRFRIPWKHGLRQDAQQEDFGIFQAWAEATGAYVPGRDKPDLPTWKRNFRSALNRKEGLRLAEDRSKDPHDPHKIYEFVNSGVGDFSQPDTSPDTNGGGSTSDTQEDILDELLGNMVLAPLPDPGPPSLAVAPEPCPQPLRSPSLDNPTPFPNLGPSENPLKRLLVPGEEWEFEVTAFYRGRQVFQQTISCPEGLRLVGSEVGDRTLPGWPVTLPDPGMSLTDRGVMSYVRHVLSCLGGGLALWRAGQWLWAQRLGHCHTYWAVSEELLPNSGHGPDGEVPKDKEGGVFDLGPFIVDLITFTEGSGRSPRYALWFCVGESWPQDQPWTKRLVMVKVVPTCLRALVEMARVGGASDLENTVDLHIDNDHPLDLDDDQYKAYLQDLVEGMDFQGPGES
| Strand | fitted relative affinity [z-score] |
| --- | --- |
| CACGGTTTCGGTATCGGGACGTGCTAG | 7.35 |
| TTACGACTGGACTTTCGGTTAGTGCTA | 1.06 |
| CCCAGGACCCTGGAACTGGCGTGCTAG | -0.655 |
| GACGGACTGCGTATCCTGACGTGCTAG | -0.0429 |
| GACGGTTTCAACTATCGGGACGTGCTA | 1.58 |
| TTTTACATTTTAAGAAATGTGTGCTAG | 2.5 |
| TCAACACTAATTTTCATACTGTGCTAG | 0.617 |
| TTAGAACTGAGTATAGATTAGTGCTAG | -0.437 |
| TAAGGTCTCCTTTTCCTTTAGTGCTAG | 5.19 |
| TCAAATCTCACTCTGTCACTGTGCTAG | 0.396 |
| TTGGTTCTGATCCTTCCCCTCGTGCTA | 0.542 |
| TTAGATTTCAGGCTGGATTAGTGCTAG | -0.0139 |
| TTAGCTCTCCTTTTCCTTTAGTGCTAG | 4.04 |
| GACGATTCCAGTTACGAGACGTGCTAG | 1.17 |
| GCGATTTGAGGAGCTCGCTCGTGCTAG | -0.426 |
| GACGGACTGATTCTCCTGACGTGCTAG | 0.284 |
| GACGATATCGGGACTTGAGACGTGCTA | 0.12 |
| GACGATCTCAGACCGGAGACGTGCTAG | 0.407 |
| AAGTTTATACCTTAGGTTTTGTGCTAG | 0.196 |

Series 2
Target: Prothrombin, mature alpha-thrombin (F2, Homo sapiens, UniProt P00734)
Method: aptamer microarray, sandwich
Molecule type: DNA with 2'F-ANA
Matrix: in vitro
Concentration: 200 nM
Notes: whole 15-mer aptamer, many near background
With: Cy3 exosite-II aptamer, 400 nM
Direction: higher = stronger binding
Strand: GGTTGGTGTGGTTGG
| Modification | mean fluorescence intensity [a.u.] |
| --- | --- |
| 2'F-ANA at 5 8 9 10 11 12 | 50.1 |
| 2'F-ANA at 2 5 7 10 11 14 | 49.9 |
| 2'F-ANA at 1 7 8 11 14 15 | 64 |
| 2'F-ANA at 4 5 6 8 9 12 13 14 15 | 48.4 |
| 2'F-ANA at 1 2 5 6 7 10 11 13 15 | 88.4 |
| 2'F-ANA at 2 3 4 5 10 11 15 | 52.1 |
| 2'F-ANA at 3 4 5 6 7 8 9 10 11 13 14 15 | 169 |
| 2'F-ANA at 1 2 4 12 14 15 | 59.4 |
| 2'F-ANA at 2 5 7 8 14 15 | 57.2 |
| 2'F-ANA at 2 3 4 7 9 10 12 14 | 197 |
| 2'F-ANA at 2 3 4 5 8 9 10 11 14 15 | 66 |
| 2'F-ANA at 1 2 4 6 7 8 9 10 13 | 47 |
| 2'F-ANA at 1 9 11 12 13 14 | 60.1 |
| 2'F-ANA at 3 4 5 6 7 10 11 12 15 | 106 |
| 2'F-ANA at 1 2 3 4 5 6 9 10 15 | 138 |
| 2'F-ANA at 1 2 5 14 15 | 43.7 |
| 2'F-ANA at 5 6 7 8 15 | 83.5 |
| 2'F-ANA at 3 4 8 9 10 11 12 15 | 303 |
| 2'F-ANA at 3 5 6 7 9 10 11 12 14 | 49.3 |
| 2'F-ANA at 1 3 8 15 | 426 |
| 2'F-ANA at 1 3 6 8 9 12 14 | 110 |
| 2'F-ANA at 1 2 5 6 7 8 12 13 14 | 51.5 |

Series 3
Target: CCNB1, cyclin fold, Cln2 fusion (human)
Method: yeast growth competition, sequencing
Matrix: yeast
Notes: weak parent motif
Relative to: not given
Direction: higher = stronger binding
Starting sequence: RB1 docking peptide (human); PKPLKKLRFDIEG
| Variant | normalised enrichment score |
| --- | --- |
| K5M | 0.0907 |
| G13V | -0.418 |
| R8M | 0.54 |
| R8W | 0.379 |
| L7C | 1.44 |
| E12V | -0.277 |
| K6D | 0.787 |
| P1G | 0.438 |
| R8F | 0.706 |
| L7G | 0.389 |
| G13D | 0.296 |
| F9G | 0.353 |
| E12F | 0.0692 |
| K5G | 0.461 |
| P1Q | 0.429 |
| P1T | 0.939 |
| R8C | 0.281 |
| P3E | 0.629 |
| D10Y | -0.246 |
| K5Q | -0.0691 |
| E12K | -0.255 |
| L4H | 0.569 |
| P3N | 0.278 |

Series 4
Target: Histone acetyltransferase KAT6A, winged helix 2, GST fusion (KAT6A, Homo sapiens, UniProt Q92794, residues 85-181)
Method: protein binding microarray
Molecule type: double-stranded DNA, one strand shown
Matrix: in vitro
Concentration: not given
Notes: 8-mer, flanks averaged, mean of 2 arrays, mostly near background
Relative to: not given
Direction: higher = stronger binding
Construct (chain): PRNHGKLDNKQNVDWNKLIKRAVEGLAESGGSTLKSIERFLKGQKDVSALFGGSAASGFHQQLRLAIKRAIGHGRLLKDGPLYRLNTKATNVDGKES
| Strand | E-score |
| --- | --- |
| ATCGACGC | -0.00685 |
| GCATCTAA | 0.0431 |
| ACAGTCTA | -0.208 |
| CTCTCAAC | 0.0524 |
| ATGAATGA | -0.0361 |
| GCTCTGAC | -0.0377 |
| AGCTGTCC | -0.121 |
| AATTGTAA | -0.026 |
| AGTGACAA | 0.0892 |
| TCAGTCCA | -0.108 |
| GTAATTAA | -0.152 |
| GAACGGCC | 0.0275 |
| CTCCGTCA | 0.0645 |
| ACGTTGGG | -0.152 |
| GAAAAGCA | 0.0341 |
| ACCAGGCA | -0.0335 |
| GCTGCTGA | 0.00579 |
| TGGTTCAA | 0.0373 |
| TACAAATA | -0.0702 |
| ACCGTTCT | -0.212 |
| AGCCCAAT | -0.0321 |
| CTCAGAGA | 0.14 |

For quick reference, copied from above (series 4):
| Strand | E-score |
| --- | --- |
| ACAGTCTA | -0.208 |
| CTCTCAAC | 0.0524 |
| ATGAATGA | -0.0361 |
| GCTCTGAC | -0.0377 |
| AGCTGTCC | -0.121 |
| AATTGTAA | -0.026 |
| AGTGACAA | 0.0892 |
| TCAGTCCA | -0.108 |
| GTAATTAA | -0.152 |
| GAACGGCC | 0.0275 |
| CTCCGTCA | 0.0645 |
| ACGTTGGG | -0.152 |
| GAAAAGCA | 0.0341 |
